Assay results gathered from unrelated publications.
Compare with care: the assays were run in different laboratories. ± gives the spread as reported.

`[11CH3]c1ccc2nc(C3CCC3)n(-c3ccc4[nH]ncc4c3)c2n1`: “tissue uptake of radioactivity” ≥ 5 %ID/g (ddY mouse, lung; dose not given, 1 min post injection).
With `COC(=O)c1ccc(-c2cn(Cc3cc(Cl)ccc3O[11CH3])nn2)cc1` the tissue uptake was 4.28 %ID/cc (PET/CT; C57BL/6 mouse, blood; 2 min).
`CCCCCCC(CCN)C(=O)N[C@H](C(=O)N[C@@H](CN)C(=O)N[C@H]1CCNC(=O)[C@H]([C@@H](C)O)NC(=O)[C@H](CCN)NC(=O)[C@H](CCN)NC(=O)[C@H](CC(C)C)NC(=O)[C@@H](Cc2ccccc2)NC(=O)[C@H](CCN)NC1=O)[C@@H](C)O` (stereo partly drawn) has a tissue concentration of 224000 ng/g (CD-1 mouse male, kidney; subcutaneous, 17.2 mg/kg, 4 h).
With `O=C(O)CCC(NP(=O)(O)OCCC[C@@H](NC(=O)CC[C@H](NC(=O)CCCCCNC(=O)c1ccc([18F])cc1)C(=O)O)C(=O)O)C(=O)O` (stereo partly drawn) the tissue uptake was 0.039 ± 0.006 %ID/g (mouse, CWR22Rv1 xenograft, heart; dose not given, 4 h, blocking agent pre-dosed).
With `CC(C)[C@H](NC(=O)[C@@H]1CCCN1C(=O)[C@H](CCCNC(=N)N)NC(=O)[C@H](CS)NC(=O)[C@H](Cc1c[nH]c2ccccc12)NC(=O)[C@H](CCCNC(=N)N)NC(=O)[C@@H](Cc1ccccc1)NC(=O)[C@H](Cc1c[nH]cn1)NC(=O)[C@H](CCC(=O)O)NC(=O)[C@H](CS)NC(=O)[C@H](CS)NC(=O)COCCOCCNC(=O)[C@@H]1CC(=O)N[C@@H](CCCNC(=N)N)C(=O)NCC(=O)N[C@@H](CC(=O)O)C(=O)N[C@H](Cc2ccc(O)cc2)C(=O)N1)C(N)=O` [technetium-99m labelled] the tissue uptake was 1.71 ± 0.25 %ID/g (nude mouse, M21 melanoma xenograft, tumor; intravenous, 2 h).
`CCCCCCC(CN)C(=O)N[C@H](C(=O)N[C@@H](CN)C(=O)N[C@H]1CCNC(=O)[C@H]([C@@H](C)O)NC(=O)[C@H](CCN)NC(=O)[C@H](CCN)NC(=O)[C@H](CC(C)C)NC(=O)[C@@H](Cc2ccccc2)NC(=O)[C@H](CCN)NC1=O)[C@@H](C)O` (stereo partly drawn) gave a tissue concentration of 473000 ng/g (CD-1 mouse male, kidney; subcutaneous, 17.2 mg/kg, 4 h).
`CCCC[C@H](NC(=O)CN1CCC(NC(=O)CN2CCN(CC(=O)O)CCN(CC(=O)O)CCN(CC(=O)O)CC2)CC1)C(=O)N[C@H]1CC(=O)NCCCC[C@@H](C(N)=O)NC(=O)[C@H](Cc2c[nH]c3ccccc23)NC(=O)[C@H](CCCNC(=N)N)NC(=O)[C@@H](Cc2ccccc2)NC(=O)[C@H](Cc2c[nH]cn2)NC1=O` [gallium-68 labelled] gave a tissue uptake of 1.5 ± 1.4 %ID/g (C57BL/6J mouse, male, B16-F10 tumour, adrenal glands; 1 h p.i., blocking, with: 100 µg non-radioactive blocking agent).
With `CC(C)C[C@@H]1NC(=O)[C@@H](Cc2ccccc2)NC(=O)[C@H](CCN)NC(=O)[C@@H](NC(=O)[C@H](CN)NC(=O)[C@@H](NC(=O)C(CCN)c2ccc(Cl)cc2)[C@@H](C)O)CCNC(=O)[C@H]([C@@H](C)O)NC(=O)[C@H](CCN)NC(=O)[C@H](CCN)NC1=O` (stereo partly drawn) the tissue concentration was 533000 ng/g (CD-1 mouse male, kidney; subcutaneous, 17.2 mg/kg, 4 h).
With `CN1C(=O)[C@@H](Cc2ccc(O)c(I)c2)NC(=O)CNC(=O)[C@H](Cc2ccc3ccccc3c2)NC(=O)[C@H](CCCNC(=N)N)NC(=O)[C@H]1CCCNC(=O)c1ccc(CNC(=O)CN2CCN(CC(=O)O)CCN(CC(=O)O)CC2)cc1` [fluorine-18 labelled] the tissue ratio was 2 ± 0.3 (CB17 SCID mouse, female, Daudi lymphoma xenograft; intravenous, 300 kBq, 1 h; relative to: tumour over liver).

Repeated from above:
With `CC(C)C[C@@H]1NC(=O)[C@@H](Cc2ccccc2)NC(=O)[C@H](CCN)NC(=O)[C@@H](NC(=O)[C@H](CN)NC(=O)[C@@H](NC(=O)C(CCN)c2ccc(Cl)cc2)[C@@H](C)O)CCNC(=O)[C@H]([C@@H](C)O)NC(=O)[C@H](CCN)NC(=O)[C@H](CCN)NC1=O` (stereo partly drawn) the tissue concentration was 533000 ng/g (CD-1 mouse male, kidney; subcutaneous, 17.2 mg/kg, 4 h).
